Results of several laboratories.
Each numbered part is a random draw from the data of one study; scales do not carry over between parts. Positions count from the first letter of the parent shown.

Block 1
Target: Fragile X messenger ribonucleoprotein 1, C-terminal low-complexity region (Fmr1, Mus musculus, UniProt P35922)
Method: RNA Bind-n-Seq
Form: RNA
Matrix: in vitro
Tested at: 200 nM
Setting: whole 134-nt RNA, ends assumed
Together with: 150 mM LiCl
Reference: input library
Direction: higher = stronger binding
Quantity: log2 enrichment
Library: 7-deaza-guanosine replaces G
Shared flanks, not repeated: GGGAGUUCUACAGUCCGACGAUC … UGGAAUUCUCGGGUGUCAAGG
CAAGUCCUGUGCUACACAUCGUAUGUACCGAAUCGGUUUUUUUGGAAAAAGGAGGAAAGUAUUAUGUUACGCCGUUCGGAUCUGCACUUC: -1.56
UGGGAGGUGGAUUUUCUUUAUUUUUUUAGCUCAUUUCCAGGGGUGGGAAUUUUUUUUUAAUAUGUGUCAUGAAUAAAGUUGUUUUUGAAA: 0.0231
UCAAGUCCUGUGCUACACAUCGUAUGUACCGAAUCGGGUUUGGUUUGGGUUUGGAAAGUAUUAUGUUACGCCGUUCGGAUCUGCACUUCC: -1.37
UGGCCCUGGUGGCAUGCGGGGAGGAAGAGGUGGCCUCAUGGAUCGUGGUGGUCCCGGUGGAAUGUUCAGAGGUGGCCGUGGAGGAGACAG: -0.366
CUCAAGUCCUGUGCUACACAUCGUAUGUACCGAAUCGGGGUUGGGGUUGGUUGGAAAGUAUUAUGUUACGCCGUUCGGAUCUGCACUUCC: -0.625
CAAGUCCUGUGCUACACAUCGUAUGUACCGAAUCGGGGAAGGGAAGGGGAAGGGGAAAGUAUUAUGUUACGCCGUUCGGAUCUGCACUUC: -0.0733
GCAGGAAGUAAAAACAAAUGGAAAUGCUUCGGAUAGUGGCAGGCGUGGGGGUUGCUAAGGAAAGGGUGGGAUGGGAGUGGGUAAAGAGUU: 1.24
UCCUGUGCUACACAUCGUAUGUACCGAAUCAAACCCCCCCAAAUUUUUAAAUUUUUAAAAAAGUAUUAUGUUACGCCGUUCGGAUCUGCA: 1.99

Block 2
Target: Interferon regulatory factor 5, full length, phosphomimetic (IRF5, Homo sapiens, UniProt Q13568-2, residues 1-514, S451D/S453D/S456D/S462D)
Method: protein-binding microarray
Form: double-stranded DNA, one strand shown
Matrix: in vitro
Tested at: 940 nM top
Setting: 60-bp whole probe
Together with: salmon DNA 0.4 mg/ml
Reference: random background probes
Direction: higher = stronger binding
Quantity: fitted relative affinity
Shared flanks, not repeated: GCCTAGCAC … GTCTTGATTCGCTTGACGCTGCTG
TTGGGTTTCCTTTCCCTTTAGTGCTAG: 1.69 z-score
GACAGTTTCGACTTTCGGGACGTGCTA: 8.28 z-score
CATTTTCTCTTATTCTAACAGTGCTAG: 2.29 z-score
TTAGAACTGAAACTGGATTAGTGCTAG: 0.831 z-score
GACGGTATAGGACTGGGGACGTGCTAG: -0.467 z-score
GACGGTTTCGGGGCTGGGGACGTGCTA: 7.45 z-score
TCATGTATATATGTGTAACTGTGCTAG: -0.188 z-score
TTCAGTTTTCTTTTCCATTTGTGCTAG: 2.1 z-score
CTCTTTTTGCTTTCTTTATGGTGCTAG: 3.11 z-score
TTATGTATCGGTTTCGGTTAGTGCTAG: 10.1 z-score
TTAGGTATCGACACAGGGTTAGTGCTA: 5.37 z-score
GACGAACTGGGGTTTCCAGACGTGCTA: -0.207 z-score
GGCGGTTTCGACTTTCGGGACGTGCTA: 7.46 z-score
GACCGTTTCGGTTTCGGGACGTGCTAG: 9.38 z-score
TTAGATTTCAGTTCCGATTTGTGCTAG: 2.18 z-score
TTATGTTTCGACTTTCGGTTAGTGCTA: 6.09 z-score
GACGGTATCCTTTTGCTGACGTGCTAG: 0.564 z-score
GACGGTTTCGGACTGGGGCCGTGCTAG: 5.95 z-score
TTAGAACTTAGTCTCGATTAGTGCTAG: 3.53 z-score

Block 3
Target: Histone acetyltransferase KAT6A, winged helix 1, GST fusion (KAT6A, Homo sapiens, UniProt Q92794, residues 1-85)
Method: protein binding microarray
Form: double-stranded DNA, one strand shown
Matrix: in vitro
Tested at: not given
Setting: 8-mer, flanks averaged, mean of 2 arrays, mostly near background
Reference: not given
Direction: higher = stronger binding
Quantity: E-score
Target sequence (chain): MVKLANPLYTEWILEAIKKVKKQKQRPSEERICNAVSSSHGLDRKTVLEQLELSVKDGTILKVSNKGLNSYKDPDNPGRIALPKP
AGCTGGCA: -0.245
CTTTTGTC: -0.00961
GCGCGACA: 0.36
GGTGTCAA: -0.026
CTTATCAC: -0.0893
AATTCCAG: -0.154
AGACATCA: -0.0503
ACTTAACT: -0.131
GCCCCCCC: -0.0726
ATTGACGA: -0.0881
AACCTCAG: -0.0944
CTTGCCGC: 0.403
CTAATGAC: -0.201
CGCCAGTA: 0.117
ACAGACGG: 0.057
TGTTCGAA: -0.116
CATTCTAC: -0.147
GTACACTA: 0.0342
CCTAACAC: -0.0678

Block 4
Target: ABI1, truncated, D143A, DHFR fusion (Arabidopsis thaliana)
Method: DHFR PCA, deep sequencing
Matrix: yeast
Setting: methotrexate growth selection, single substitutions
Together with: (+)-ABA 0.0091 µM
Reference: wild-type fitted maximum
Direction: higher = stronger binding
Quantity: relative binding score
Starting sequence: PYL1, truncated, DHFR fusion (Arabidopsis thaliana); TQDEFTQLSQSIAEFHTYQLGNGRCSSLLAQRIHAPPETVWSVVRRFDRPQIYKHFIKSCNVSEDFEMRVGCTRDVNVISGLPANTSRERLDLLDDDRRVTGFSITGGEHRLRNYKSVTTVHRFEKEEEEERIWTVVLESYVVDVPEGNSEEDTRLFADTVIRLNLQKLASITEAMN
F124D: 16.2%
L91N: 9.12%
S171M: 36.7%
R123S: 50.5%
Q19N: 32.8%
G108E: -5.88%
N149F: 14.6%
T86R: 15.1%
S26I: 1.52%
A170E: 3.71%
M68V: 8.94%
E129W: 6.95%
R155V: 5.37%
N61P: -1.57%
P50M: -1.41%
R90C: -4.93%
G71M: 1.66%
R98E: -3.95%
R98H: 0.71%
K58E: 14.1%
R113M: 15.7%

A few entries again (block 2):
CTCTTTTTGCTTTCTTTATGGTGCTAG: 3.11 z-score
TTATGTTTCGACTTTCGGTTAGTGCTA: 6.09 z-score
GACCGTTTCGGTTTCGGGACGTGCTAG: 9.38 z-score
GACGAACTGGGGTTTCCAGACGTGCTA: -0.207 z-score
GGCGGTTTCGACTTTCGGGACGTGCTA: 7.46 z-score
GACAGTTTCGACTTTCGGGACGTGCTA: 8.28 z-score
GACGGTTTCGGGGCTGGGGACGTGCTA: 7.45 z-score
TCATGTATATATGTGTAACTGTGCTAG: -0.188 z-score
GACGGTATCCTTTTGCTGACGTGCTAG: 0.564 z-score
